{"data": "Published values pooled from the literature", "note": "Every numbered part comes from another study and shows a few of its results, in no order."}
{"data": "Block 1", "target": "RNA binding protein fox-1 homolog 2, RRM domain, GST-SBP tag (RBFOX2, Homo sapiens, UniProt O43251-10, residues 100-194)", "method": "RNA Bind-n-Seq", "molecule type": "RNA", "medium": "in vitro", "tested at": "365 nM", "notes": "natural RNA segment, single round, ends assumed", "reference": "no-protein control", "direction": "higher = stronger binding", "Residues (chain)": "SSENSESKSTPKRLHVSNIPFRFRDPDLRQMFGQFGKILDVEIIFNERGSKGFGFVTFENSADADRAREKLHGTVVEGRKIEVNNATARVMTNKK"}
{"Strand": "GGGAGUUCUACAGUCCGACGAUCCUUCUGUUCCUUGUAUCUGUGGAAGUCAAGUAGCCCUUCUCAAAAAUGAGAAGCCAAGCUUUAAAUAGCAAACUACAGGGUAUUAAAAGACUAACUCUUCAGUUAAGAACUGGAAUUCUCGGGUGCCAA", "RBNS enrichment (R)": 0.303}
{"Strand": "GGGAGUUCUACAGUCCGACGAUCUAAAUUCUGGUAUACAUUGAAUUCAUUAUAAUUUGGGUGACUAGAACAACUUGAAGAUUGUAGCAAUAAGCUGGACUAGUGUCCUAAAAAUGGCUAACUGAUGAAUUAGAUGGAAUUCUCGGGUGCCAA", "RBNS enrichment (R)": 0.336}
{"Strand": "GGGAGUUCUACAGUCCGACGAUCAUCCAAGACUGAAUGAAAGCGCUUUUCUUAUGCAUACAAUGUGAGCAAGAACAAGAACUGUUUAAGGCACCUCUGUUCCCAGCCACUGAAGAGAGACGUCAGAAGAUGUUUGGAAUUCUCGGGUGCCAA", "RBNS enrichment (R)": 1.03}
{"Strand": "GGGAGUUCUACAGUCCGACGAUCGAACAAAAGCACAGAGAUGGCUCAGUGGUUAGGAGCACUGACUCCUUUUCCGUAGGUCCUGAGUUCAAAUCCCAGUAACCACAUGGUGGCUGACAACCACCCGUAAUGAGUGGAAUUCUCGGGUGCCAA", "RBNS enrichment (R)": 0.281}
{"Strand": "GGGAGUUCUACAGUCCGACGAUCUAAAAAAAUUCUCCAACAAAAAUACUUGUUGACUUGAUGUUUUAUCACUUCUCUAAGUAAGGUUGAAAUAUCCUUAUUGUAGCUACUGUUUUUAAUGUAAAGGUUAAACUUGGAAUUCUCGGGUGCCAA", "RBNS enrichment (R)": 0.435}
{"Strand": "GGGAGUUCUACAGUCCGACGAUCUUAACGGAGAUCAGUGGGAGUUACAGGCAUCUCAGUUAUCAAGGAAUUGAACUCCUUGAGAGAUAGUUGGGUUUACUAAAUUAUUCUCUCUAAAAUGUCUCUGAGUGAAAUGGAAUUCUCGGGUGCCAA", "RBNS enrichment (R)": 0.584}
{"Strand": "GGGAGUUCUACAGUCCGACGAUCACUACAGUUAAAACUACUCUUGCACUGCAACAGUGCAUAUGACCUUUAUGUGAUUGUACAGUAUUAAAAGUUUUUUCUUAUGUACAGUAAACUUUAUCAUAUGGCAGAAGUGGAAUUCUCGGGUGCCAA", "RBNS enrichment (R)": 0.246}
{"Strand": "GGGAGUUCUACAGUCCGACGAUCGGGGAAACUGAGCCAGGUCCAGGCCGAUGAGAAGUUCCCAGUGGGCUGAAGUGGCCACCAGGGGUCAGCAGUGCUCCAGUUGCUGGGCUUAAAGCUUCCUGGUGCCUGUCUGGAAUUCUCGGGUGCCAA", "RBNS enrichment (R)": 0.448}
{"data": "Block 2", "cell line": "HEK-293T/ACE2", "tested at": "concentration not given", "time": "16 (unit not given)", "reference": "vehicle"}
{"SMILES": "O=C1C(O)=C([C@H]2CC[C@H](c3ccc(Cl)cc3)CC2)C(=O)c2ccccc21", "viability [%]": 92.7}
{"SMILES": "CC(S)C(=O)NCC(=O)O (stereo not drawn)", "viability [%]": 104}
{"SMILES": "C[C@]12CCC(=O)C=C1CC[C@@H]1[C@@H]2[C@@H](O)C[C@@]2(C)[C@H]1CC[C@]2(O)C(=O)CO", "viability [%]": 104}
{"SMILES": "CC(C[N+](C)(C)C)OC(N)=O (stereo not drawn)", "viability [%]": 104}
{"data": "Block 3", "target": "Replicase polyprotein 1ab, nsp13 helicase (rep, Severe acute respiratory syndrome coronavirus 2, UniProt P0DTD1)", "action": "inhibitor", "tested at": "20 µM"}
{"SMILES": "N#Cc1ccc(N2N=C3c4ccc(C(=O)O)cc4CC[C@@H]3[C@@H]2C2CCCC2)cc1Cl", "inhibition [%]": 14.2}
{"SMILES": "CC(=O)O[C@]1(C(C)=O)CC[C@H]2[C@@H]3CCC4=CC(=O)CC[C@]4(C)[C@H]3CC[C@@]21C", "inhibition [%]": 11.3}
{"SMILES": "CC(C)(C)NC(=O)[C@H]1CC[C@H]2[C@@H]3CC[C@H]4NC(=O)C=C[C@]4(C)[C@H]3CC[C@]12C", "inhibition [%]": 10.9}
{"SMILES": "CC1(C)S[C@@H]2[C@H](NC(=O)COc3ccccc3)C(=O)N2[C@H]1C(=O)O", "inhibition [%]": -0.6}
{"SMILES": "C=CC(=O)Nc1cccc(Oc2nc(Nc3ccc(N4CCN(C)CC4)cc3)nc3ccsc23)c1", "inhibition [%]": 56.3}
{"SMILES": "NCCCCN(Cc1nc2ccccc2[nH]1)[C@H]1CCCc2cccnc21", "inhibition [%]": -3.14}
{"SMILES": "CCCCN(CCCC)CC(O)c1cc(Cl)cc2c1-c1ccc(Cl)cc1/C2=C/c1ccc(Cl)cc1 (stereo not drawn)", "inhibition [%]": 4.44}
{"SMILES": "O=C(COc1cccc2c(=O)[nH]ccc12)c1ccccc1", "inhibition [%]": 1.84}
{"SMILES": "CN1[C@@H]2CC[C@H]1C[C@@H](OC(=O)c1cc(Cl)cc(Cl)c1)C2", "inhibition [%]": -0.81}
{"SMILES": "O=C(O)[C@@H](O)[C@@H](O)[C@H](O)[C@@H](O)C(=O)O", "inhibition [%]": 0.42}
{"SMILES": "CCS(=O)(=O)N1CC(CC#N)(n2cc(-c3ncnc4[nH]ccc34)cn2)C1", "inhibition [%]": 8.76}
{"SMILES": "Oc1ccc(Cl)cc1Cc1cc(Cl)ccc1O", "inhibition [%]": -1.19}
{"SMILES": "C=CC(N)CCC(=O)O (stereo not drawn)", "inhibition [%]": 1.07}
{"SMILES": "OCCc1ccc(OCCn2ccnc2)cc1", "inhibition [%]": 1.33}
{"SMILES": "CSC[C@H](N)C(=O)O", "inhibition [%]": 3.33}
{"SMILES": "O=C(Nc1ccc(N2CCC(C(=O)N3CCOCC3)CC2)cc1)c1cnc(Oc2ccccc2)nc1", "inhibition [%]": 3.15}
{"SMILES": "Cc1cc(N2CCCCC2)nc2ccccc12", "inhibition [%]": -2.27}
{"SMILES": "CN(CCOc1ccc(CC2SC(=O)NC2=O)cc1)c1ccccn1 (stereo not drawn)", "inhibition [%]": 4.99}
{"SMILES": "CC1(C)Cc2c(-c3ccccc3)c(-c3ccc(Cl)cc3)c(CC(=O)O)n2C1", "inhibition [%]": 8.83}
{"SMILES": "CC(C)(C)c1ccc(S(=O)(=O)Nc2ccc(Cl)cc2C(=O)c2cc[n+]([O-])cc2)cc1", "inhibition [%]": 2.89}
{"SMILES": "CCC1=C(C)CN(C(=O)NCCc2ccc(S(=O)(=O)NC(=O)N[C@H]3CC[C@H](C)CC3)cc2)C1=O", "inhibition [%]": 8.61}
{"SMILES": "C[n+]1cc2c3c(ccc2c2ccc4cc5c(cc4c21)OCO5)OCO3", "inhibition [%]": 102}
{"SMILES": "CCCCCCCCCCCCCCOC(=O)c1cccnc1", "inhibition [%]": -0.43}
{"SMILES": "CCCCCCCCCCOc1cc2c(O)c(C(=O)OCC)cnc2cc1OCC", "inhibition [%]": 2.78}
{"SMILES": "Cc1cc(Oc2ccc3nc(COc4ccc(CC5SC(=O)NC5=O)cc4)n(C)c3c2)cc(C)c1N (stereo not drawn)", "inhibition [%]": -3.9}
{"data": "Block 4", "target": "Histone acetyltransferase KAT6A, both winged helices, GST fusion (KAT6A, Homo sapiens, UniProt Q92794, residues 1-181)", "method": "protein binding microarray", "molecule type": "double-stranded DNA, one strand shown", "medium": "in vitro", "tested at": "not given", "notes": "8-mer, flanks averaged, mean of 2 arrays, mostly near background", "reference": "not given", "direction": "higher = stronger binding", "Construct (chain)": "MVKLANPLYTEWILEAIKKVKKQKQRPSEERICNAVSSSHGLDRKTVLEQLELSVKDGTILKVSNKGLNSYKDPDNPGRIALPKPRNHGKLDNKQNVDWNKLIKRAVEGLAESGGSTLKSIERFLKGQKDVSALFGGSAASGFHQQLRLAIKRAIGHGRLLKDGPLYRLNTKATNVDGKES"}
{"Strand": "AAGACACC", "E-score": -0.0946}
{"Strand": "ATGGTACC", "E-score": -0.0114}
{"Strand": "ATACGGCC", "E-score": 0.234}
{"Strand": "GCTATGCA", "E-score": 0.032}
{"Strand": "ATGAGGGC", "E-score": -0.122}
{"Strand": "CATACGCC", "E-score": 0.155}
{"Strand": "GGTCCGCA", "E-score": 0.219}
{"Strand": "AAGTGCGA", "E-score": 0.115}
{"data": "Block 5", "organism": "SARS-CoV-2", "read-out": "cytopathic effect", "cells": "Vero E6", "tested at": "10 µM"}
{"Structure (SMILES)": "CS/C(N)=C(C#N)/C(C#N)=C(\\N)SC", "inhibition [%]": -0.9}
{"Structure (SMILES)": "CN(CCCN1c2ccccc2CCc2ccccc21)CC(=O)c1ccc(Cl)cc1", "inhibition [%]": -0.02}
{"Structure (SMILES)": "CC(=O)[O][Hg][c]1ccccc1", "inhibition [%]": -44}
{"Structure (SMILES)": "CCOc1ccc(Nc2nc(-c3c(C)nc4ccccn34)cs2)cc1", "inhibition [%]": -2.2}
{"Structure (SMILES)": "O=C(O)c1cc(O)c2c(c1)[C@H]([C@H]1c3cc(C(=O)O)cc(O)c3C(=O)c3c(O[C@@H]4O[C@H](CO)[C@@H](O)[C@H](O)[C@H]4O)cccc31)c1cccc(O[C@@H]3O[C@H](CO)[C@@H](O)[C@H](O)[C@H]3O)c1C2=O", "inhibition [%]": 3.3}
{"Structure (SMILES)": "Cc1ccc(S(=O)(=O)c2ccc([N+](=O)[O-])o2)cc1", "inhibition [%]": -32.2}
